# Experimental data pooled from the literature.
# Protocols differ between the studies behind these lines. “And” joins repeats or separate records; there may be more than shown. Numbers after ± are the reported error.
# Target: Acetylcholinesterase (ache, Electrophorus electricus, UniProt O42275)
# Mode: inhibitor
SMILES,read-out,method,pH,IC50
COc1ccc(C2C(Cc3ccccc3)NC3(C(=O)Nc4ccc(OC(F)(F)F)cc43)C23Cc2cc(OC)c(OC)cc2C3=O)cc1 (centres unmarked),enzyme activity,,pH 8,3.24 ± 0.18 µM
O=Cc1ccc(/C=N/NC(=O)COc2ccc(Sc3ccc(OCC(=O)N/N=C/c4ccc(C=O)cc4)cc3)cc2)cc1,enzyme activity,,,148 µM
COc1cc2c(cc1OC(C)=O)CCN1Cc3c(ccc(OC(C)=O)c3OC)C[C@@H]21,enzyme activity,,,150 µM
COc1cc2c(cc1OC)C(=O)C1(C2)C(c2ccccc2)C(Cc2c[nH]c3ccccc23)NC12C(=O)Nc1ccc(OC(F)(F)F)cc12 (centres unmarked),enzyme activity,,pH 8,< 10 µM and 5.94 µM
C=CCc1ccc(OCc2ccccc2)c(OC)c1,enzyme activity,Ellman,pH 7.5,174 µM
CC(=O)c1c(O)ccc2ccc(=O)oc12,enzyme activity,Ellman,,23.7 µM
CCCCCc1nc2ccc(/N=N/c3ccc(Cl)cc3)cc2c(-c2ccccc2)c1I,enzyme activity,Ellman,pH 7.4,14.3 µM
COc1ccc(C2C(Cc3c[nH]c4ccccc34)NC3(C(=O)Nc4ccc(OC(F)(F)F)cc43)C23Cc2cc(OC)c(OC)cc2C3=O)cc1 (centres unmarked),enzyme activity,,pH 8,3.46 ± 0.2 µM
O=[N+]([O-])c1ccc(/N=N/c2ccc3nc(-c4ccccc4)cc(-c4ccccc4)c3c2)cc1,enzyme activity,Ellman,pH 7.4,16.8 µM
COc1cccc(/C=N/NC(=O)COc2ccc(Sc3ccc(OCC(=O)N/N=C/c4cccc(OC)c4O)cc3)cc2)c1O,enzyme activity,,,27.8 µM
Cc1cccc(C[n+]2cccc(NC(=O)CN3C(=O)c4ccccc4C3=O)c2)c1,enzyme activity,Ellman,,4.8 µM
O=C(COc1ccc(Sc2ccc(OCC(=O)N/N=C/c3cccc(O)c3)cc2)cc1)N/N=C/c1cccc(O)c1,enzyme activity,,,51.1 µM
CC(=O)C1=C(C)NC(SCCCSc2nnc(Cc3ccccc3Nc3c(Cl)cccc3Cl)n2-c2ccc(Cl)c(Cl)c2)=NC1c1ccc([N+](=O)[O-])cc1 (centres unmarked),enzyme activity,Ellman,,0.09 µM
COc1cc2c(cc1OC(C)=O)C1Cc3ccc(OC(C)=O)c(OC)c3CN1CC2 (centres unmarked),enzyme activity,,,15.4 µM
CCCCCn1c(SC(C(=O)NCc2ccccc2)C(=O)NCc2ccccc2)nc2cc(C(=O)Nc3cccc(C(F)(F)F)c3)ccc2c1=O,,,,6.1 µM
COc1cc2c(cc1OC)C(NCC1CCN(Cc3ccccc3)CC1)CC2=O (centres unmarked),enzyme activity,Ellman,,0.991 µM
O=c1c(Nc2ccc(O)cc2)c(NC2CCN(Cc3ccccc3)CC2)c1=O,enzyme activity,Ellman,,9.6 µM
N=C(N)N/N=C(/C=C/c1ccccc1)c1cn(Cc2ccccc2)c2ccccc12,enzyme activity,Ellman,,146 µM
O=C(CN1C(=O)c2ccccc2C1=O)Nc1cc[n+](Cc2cccc(Cl)c2)cc1,enzyme activity,Ellman,,7.4 µM
COc1ccc([N+](=O)[O-])cc1NC(=O)CCC(=O)[O][Zn][O]C(=O)CCC(=O)Nc1cc([N+](=O)[O-])ccc1OC.c1ccncc1,enzyme activity,,,317 µM
Cc1ccc(-c2nc3ccc(/N=N/c4ccc([N+](=O)[O-])cc4)cc3c(-c3ccccc3)c2I)cc1,enzyme activity,Ellman,pH 7.4,8.4 µM
COc1ccc2c(c1)C(=O)c1nccc3cc4c(c-2c13)OCO4,enzyme activity,,,73.1 µM
Cn1c(=N)c2[nH]c(=O)n(C)c2n(C)c1=O,enzyme activity,,,24 µM
COc1cc2c(cc1OC)C(=O)C1(C2)C(c2ccccc2OC)C(Cc2ccccc2)NC12C(=O)Nc1ccc(OC(F)(F)F)cc12 (centres unmarked),enzyme activity,,pH 8,6.41 ± 0.1 µM
COc1cc2c(cc1O)C1Cc3ccc(O)c(OC)c3C[N+]1(C)CC2 (centres unmarked),enzyme activity,,,11.3 µM
COc1cc2c(cc1OC)C(=O)C1(C2)C(c2ccc(Cl)cc2)C(Cc2ccccc2)NC12C(=O)Nc1ccc(OC(F)(F)F)cc12 (centres unmarked),enzyme activity,,pH 8,11.3 µM and > 10 µM
O=C(CN1C(=O)c2ccccc2C1=O)Nc1ccc[n+](Cc2ccccc2)c1,enzyme activity,Ellman,,2.6 µM
O=C(CNC(=S)N/N=C/c1ccc([N+](=O)[O-])cc1)c1ccccc1Cl,enzyme activity,Ellman,,110 µM
O=C(COc1ccc(Sc2ccc(OCC(=O)N/N=C/c3ccc(O)cc3)cc2)cc1)N/N=C/c1ccc(O)cc1,enzyme activity,,,74.2 µM
COc1cc(CCC(=O)N2CCC(Cc3ccccc3)CC2)ccc1OCCCCN1CCCCC1,enzyme activity,Ellman,,7.6 µM
COc1ccc(/C=N/NC(=O)COc2ccc(Sc3ccc(OCC(=O)N/N=C/c4ccc(OC)cc4OC)cc3)cc2)c(OC)c1,enzyme activity,,,40.2 µM
Cc1nc(-c2ccc(Cl)cc2)nc2sc3c(=O)n(CCN4CCOCC4)cnc3c12,enzyme activity,Ellman,,0.854 µM
